Published values collected from several papers.
A part holds a random share of what one study measured.
Chain of UniProt Q9Y4K4 (whole entry, looked up): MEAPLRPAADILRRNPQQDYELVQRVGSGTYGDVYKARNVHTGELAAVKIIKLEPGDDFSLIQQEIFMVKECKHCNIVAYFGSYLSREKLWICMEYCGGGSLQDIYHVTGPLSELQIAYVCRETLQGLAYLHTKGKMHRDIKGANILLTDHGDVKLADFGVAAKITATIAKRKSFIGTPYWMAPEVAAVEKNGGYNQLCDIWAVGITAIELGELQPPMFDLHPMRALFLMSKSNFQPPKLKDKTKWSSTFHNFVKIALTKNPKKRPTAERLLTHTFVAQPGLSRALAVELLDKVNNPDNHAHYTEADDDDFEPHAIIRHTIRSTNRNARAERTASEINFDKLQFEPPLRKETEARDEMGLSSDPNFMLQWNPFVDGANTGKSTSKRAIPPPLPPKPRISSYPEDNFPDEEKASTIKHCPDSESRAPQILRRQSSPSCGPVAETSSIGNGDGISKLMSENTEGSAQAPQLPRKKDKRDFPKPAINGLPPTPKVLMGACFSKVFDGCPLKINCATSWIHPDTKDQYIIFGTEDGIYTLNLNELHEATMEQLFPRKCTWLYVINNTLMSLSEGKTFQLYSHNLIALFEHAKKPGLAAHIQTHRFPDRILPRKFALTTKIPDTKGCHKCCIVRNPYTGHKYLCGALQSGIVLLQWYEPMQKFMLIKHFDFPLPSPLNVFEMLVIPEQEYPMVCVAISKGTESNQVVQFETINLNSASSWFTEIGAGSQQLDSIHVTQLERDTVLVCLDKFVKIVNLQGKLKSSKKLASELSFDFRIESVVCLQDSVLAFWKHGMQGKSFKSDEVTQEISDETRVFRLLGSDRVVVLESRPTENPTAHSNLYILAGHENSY
Chain of UniProt Q96GX5 (whole entry, looked up): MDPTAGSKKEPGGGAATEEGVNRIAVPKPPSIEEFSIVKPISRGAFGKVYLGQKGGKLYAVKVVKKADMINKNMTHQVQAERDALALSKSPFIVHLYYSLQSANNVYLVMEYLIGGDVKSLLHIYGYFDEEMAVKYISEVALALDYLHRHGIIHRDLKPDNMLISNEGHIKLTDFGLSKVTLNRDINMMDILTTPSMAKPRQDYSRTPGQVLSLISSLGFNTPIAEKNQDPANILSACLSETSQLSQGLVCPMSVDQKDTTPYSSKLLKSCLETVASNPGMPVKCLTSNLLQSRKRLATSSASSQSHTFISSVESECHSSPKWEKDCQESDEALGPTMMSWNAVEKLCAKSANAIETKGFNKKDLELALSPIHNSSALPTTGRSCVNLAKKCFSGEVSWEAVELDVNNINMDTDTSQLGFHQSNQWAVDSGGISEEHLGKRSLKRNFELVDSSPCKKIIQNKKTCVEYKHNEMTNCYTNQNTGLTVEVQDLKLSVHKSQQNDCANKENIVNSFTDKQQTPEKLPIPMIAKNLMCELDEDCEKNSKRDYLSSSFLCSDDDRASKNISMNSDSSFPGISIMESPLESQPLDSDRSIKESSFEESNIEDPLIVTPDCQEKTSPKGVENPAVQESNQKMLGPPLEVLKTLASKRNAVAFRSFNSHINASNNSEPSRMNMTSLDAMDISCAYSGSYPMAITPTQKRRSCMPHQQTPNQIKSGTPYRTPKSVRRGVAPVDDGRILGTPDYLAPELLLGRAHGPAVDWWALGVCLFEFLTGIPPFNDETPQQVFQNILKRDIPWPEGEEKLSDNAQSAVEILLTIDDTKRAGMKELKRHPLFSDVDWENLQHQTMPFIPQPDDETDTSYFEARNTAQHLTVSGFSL
Chain of UniProt P11309 (whole entry, looked up): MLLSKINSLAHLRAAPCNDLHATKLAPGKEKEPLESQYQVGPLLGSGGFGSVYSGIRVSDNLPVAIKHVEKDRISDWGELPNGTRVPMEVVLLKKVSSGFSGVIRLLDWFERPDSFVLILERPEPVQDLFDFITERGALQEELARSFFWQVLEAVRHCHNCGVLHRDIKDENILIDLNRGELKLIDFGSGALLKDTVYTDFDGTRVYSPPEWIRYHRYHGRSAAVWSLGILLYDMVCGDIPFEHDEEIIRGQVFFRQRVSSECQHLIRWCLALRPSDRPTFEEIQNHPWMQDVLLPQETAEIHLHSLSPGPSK
Chain of UniProt P29317 (whole entry, looked up): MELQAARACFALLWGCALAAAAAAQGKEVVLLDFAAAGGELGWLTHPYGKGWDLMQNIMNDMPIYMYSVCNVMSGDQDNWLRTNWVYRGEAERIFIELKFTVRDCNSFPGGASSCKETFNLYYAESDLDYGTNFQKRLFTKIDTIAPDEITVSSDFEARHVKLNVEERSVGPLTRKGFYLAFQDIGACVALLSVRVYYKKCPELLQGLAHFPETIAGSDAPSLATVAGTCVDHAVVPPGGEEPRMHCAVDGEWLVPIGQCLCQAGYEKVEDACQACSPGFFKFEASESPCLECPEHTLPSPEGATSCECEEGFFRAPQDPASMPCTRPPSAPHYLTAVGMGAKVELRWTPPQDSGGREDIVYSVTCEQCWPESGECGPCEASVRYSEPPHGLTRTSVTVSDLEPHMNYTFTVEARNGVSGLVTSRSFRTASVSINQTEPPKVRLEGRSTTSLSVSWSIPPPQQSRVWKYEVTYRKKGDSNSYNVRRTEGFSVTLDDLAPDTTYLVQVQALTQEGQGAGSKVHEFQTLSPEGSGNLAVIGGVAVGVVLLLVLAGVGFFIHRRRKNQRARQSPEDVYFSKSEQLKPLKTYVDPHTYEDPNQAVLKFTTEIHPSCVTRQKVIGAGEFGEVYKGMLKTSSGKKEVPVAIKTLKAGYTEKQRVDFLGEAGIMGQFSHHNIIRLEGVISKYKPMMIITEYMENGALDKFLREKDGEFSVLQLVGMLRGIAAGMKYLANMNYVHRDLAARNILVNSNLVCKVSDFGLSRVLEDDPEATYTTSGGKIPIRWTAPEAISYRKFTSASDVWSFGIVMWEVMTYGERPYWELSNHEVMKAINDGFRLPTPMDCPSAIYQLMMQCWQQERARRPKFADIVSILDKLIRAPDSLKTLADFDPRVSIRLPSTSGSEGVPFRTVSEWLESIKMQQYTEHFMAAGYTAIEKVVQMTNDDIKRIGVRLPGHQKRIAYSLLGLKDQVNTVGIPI
Chain of UniProt Q8N752 (whole entry, looked up): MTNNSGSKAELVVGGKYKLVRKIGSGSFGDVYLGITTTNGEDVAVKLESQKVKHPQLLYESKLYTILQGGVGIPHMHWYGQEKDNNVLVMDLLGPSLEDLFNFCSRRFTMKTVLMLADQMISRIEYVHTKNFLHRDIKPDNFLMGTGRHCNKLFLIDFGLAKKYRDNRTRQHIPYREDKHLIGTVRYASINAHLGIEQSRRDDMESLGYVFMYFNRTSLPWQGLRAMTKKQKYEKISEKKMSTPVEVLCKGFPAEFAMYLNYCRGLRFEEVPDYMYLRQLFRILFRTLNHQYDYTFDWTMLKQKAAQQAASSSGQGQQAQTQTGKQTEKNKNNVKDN
Chain of UniProt Q86UX6 (whole entry, looked up): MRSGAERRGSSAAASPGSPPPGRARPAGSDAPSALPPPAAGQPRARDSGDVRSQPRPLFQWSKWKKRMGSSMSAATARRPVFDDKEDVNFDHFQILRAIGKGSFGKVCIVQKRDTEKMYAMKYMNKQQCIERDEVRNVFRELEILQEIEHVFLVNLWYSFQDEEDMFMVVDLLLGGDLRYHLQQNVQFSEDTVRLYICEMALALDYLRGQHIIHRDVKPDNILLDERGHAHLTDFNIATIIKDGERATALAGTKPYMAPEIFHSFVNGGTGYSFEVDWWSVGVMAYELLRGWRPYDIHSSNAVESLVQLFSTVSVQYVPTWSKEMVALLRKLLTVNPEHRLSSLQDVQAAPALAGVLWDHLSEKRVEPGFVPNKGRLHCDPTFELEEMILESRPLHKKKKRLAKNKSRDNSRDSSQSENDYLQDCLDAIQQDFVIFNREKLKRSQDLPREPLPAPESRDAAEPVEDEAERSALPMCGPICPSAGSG

Set 1
Organism: Sarcocystis neurona
Read-out: parasite activity
Tested at: 10 µM
Time: 96 h
Endpoint: activity class
CC=CC(=O)N(CC)c1ccccc1C (mixture of isomers): inactive
O=C(O)c1cc(=O)c2c(OCC(O)COc3cccc4oc(C(=O)O)cc(=O)c34)cccc2o1: inactive
CCCN1CCCC[C@H]1C(=O)Nc1c(C)cccc1C: inactive
CC1(C)S[C@@H]2[C@H](NC(=O)COc3ccccc3)C(=O)N2[C@H]1C(=O)O: inactive
Nc1nc(N)c2nc(-c3ccccc3)c(N)nc2n1: inactive
CN(C)CCCN1c2ccccc2Sc2ccc(Cl)cc21: inactive
Cc1ncc([N+](=O)[O-])n1CC(C)O (stereo not drawn): inactive
Cc1nc2ccccn2c(=O)c1CCN1CCC(C(=O)c2ccc(F)cc2)CC1: inactive

Set 2
SMILES: C=CCc1ccc(O)c(-c2ccc(O)c(CC=C)c2)c1
Read-out: chloride current
Technique: whole-cell voltage clamp
Endpoint: IC50
ANO1 del476-501/F803I: Anoctamin-1 (ANO1, Homo sapiens, UniProt Q5XXA6, del476-501/F803I)
Chain of UniProt Q5XXA6 (whole entry, unmodified, looked up): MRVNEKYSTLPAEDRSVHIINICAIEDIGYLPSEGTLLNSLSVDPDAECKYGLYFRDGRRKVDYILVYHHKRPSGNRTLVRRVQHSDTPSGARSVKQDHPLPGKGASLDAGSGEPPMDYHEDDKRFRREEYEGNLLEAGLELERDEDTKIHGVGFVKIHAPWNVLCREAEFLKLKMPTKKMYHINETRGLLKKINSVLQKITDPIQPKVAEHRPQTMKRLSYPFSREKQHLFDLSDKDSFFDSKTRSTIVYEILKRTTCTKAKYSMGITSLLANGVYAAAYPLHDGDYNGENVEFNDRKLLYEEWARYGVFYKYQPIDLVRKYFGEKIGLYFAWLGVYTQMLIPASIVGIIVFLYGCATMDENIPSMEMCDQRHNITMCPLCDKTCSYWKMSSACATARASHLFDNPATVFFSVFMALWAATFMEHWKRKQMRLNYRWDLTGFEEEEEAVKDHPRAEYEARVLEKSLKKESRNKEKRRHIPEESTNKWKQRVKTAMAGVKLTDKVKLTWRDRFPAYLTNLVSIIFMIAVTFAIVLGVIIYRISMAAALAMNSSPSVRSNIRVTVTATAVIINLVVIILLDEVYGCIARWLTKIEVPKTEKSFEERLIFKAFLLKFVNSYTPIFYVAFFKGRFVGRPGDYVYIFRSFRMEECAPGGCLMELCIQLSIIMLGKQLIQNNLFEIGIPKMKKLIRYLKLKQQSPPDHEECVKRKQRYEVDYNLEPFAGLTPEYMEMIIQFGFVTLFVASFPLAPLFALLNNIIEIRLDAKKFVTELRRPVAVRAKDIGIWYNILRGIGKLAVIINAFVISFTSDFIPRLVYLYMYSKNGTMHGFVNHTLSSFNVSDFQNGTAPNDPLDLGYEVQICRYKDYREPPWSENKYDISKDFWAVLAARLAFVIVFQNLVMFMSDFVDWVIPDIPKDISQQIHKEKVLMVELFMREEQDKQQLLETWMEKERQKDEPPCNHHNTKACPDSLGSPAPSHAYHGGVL
Anoctamin-1 (ANO1, Homo sapiens, UniProt Q5XXA6, del476-501/R561A); membrane voltage 20 mV: 4.99 µM
ANO1 del476-501/F803I; inhibitor; mutant F777I: 8.87 µM
ANO1 del476-501/F803I; inhibitor; mutant F777I at 100 mV, together with: 300 nM Ca2+: 8.87 µM
Anoctamin-1 (ANO1, Homo sapiens, UniProt Q5XXA6, del476-501/L548A); inhibitor; pore pocket mutant L522A at 100 mV, together with: 300 nM Ca2+: 6.21 µM
Anoctamin-1 (ANO1, Homo sapiens, UniProt Q5XXA6, del476-501/F807A); membrane voltage 40 mV: 19.6 µM
Anoctamin-1 (ANO1, Homo sapiens, UniProt Q5XXA6, del476-501); inhibitor; -20 mV voltage, together with: 300 nM Ca2+: 2.88 µM
Anoctamin-1 (ANO1, Homo sapiens, UniProt Q5XXA6, del476-501/F803W); inhibitor; 20 mV holding voltage: 4.82 µM
Anoctamin-1 (ANO1, Homo sapiens, UniProt Q5XXA6, del476-501/R631K); inhibitor; R605K mutant at 40 mV: 7.53 µM

Set 3
Structure (SMILES): CCCCN(CCCC)C(=O)CN1C[C@@H](c2cc(OC)c3c(c2)OCO3)[C@H](C(=O)O)[C@H]1CC(C)(C)CCC
Read-out: cell-free assay
Technique: competition with immobilised ligand
Tested at: 1 µM
Endpoint: remaining binding
DAPK2 (Homo sapiens, UniProt Q9UIK4): 99.6%
CSK (Homo sapiens, UniProt P41240): 100%
PIK3CA (Homo sapiens, UniProt P42336, E545A): 77.9%
MAPK3 (Homo sapiens, UniProt P27361): 100%
NEK11 (Homo sapiens, UniProt Q8NG66): 100%
PIM1 (Homo sapiens, UniProt P11309): 91.7%
MAST1 (Homo sapiens, UniProt Q9Y2H9): 100%
Tyrosine-protein kinase ABL1, non-phosphorylated (ABL1, Homo sapiens, UniProt P00519, Q252H): 100%
EGFR (Homo sapiens, UniProt P00533, G719S): 100%
PRKACA (Homo sapiens, UniProt P17612): 81.9%
MAP4K5 (Homo sapiens, UniProt Q9Y4K4): 100%
MAPK10 (Homo sapiens, UniProt P53779): 100%
CDKL1 (Homo sapiens, UniProt Q00532): 74.9%
STK17A (Homo sapiens, UniProt Q9UEE5): 100%
INSRR (Homo sapiens, UniProt P14616): 93.2%
TLK1 (Homo sapiens, UniProt Q9UKI8): 82.4%
STK32C (Homo sapiens, UniProt Q86UX6): 100%

Set 4
Compound: O=C(Nc1cnn(-c2csc(C(=O)NC3COC3)c2)c1)Nc1c(F)cccc1Cl
Read-out: enzyme activity
Tested at: 5 µM
Endpoint: remaining activity
MASTL (Homo sapiens, UniProt Q96GX5); inhibitor: 93.7%
EPHA4 (Homo sapiens, UniProt P54764); baseline: untreated control: 87.8%
PRKCA (Homo sapiens, UniProt P17252); baseline: untreated control: 90.3%
EPHA2 (Homo sapiens, UniProt P29317); baseline: untreated control: 97.6%
TSSK6 (Homo sapiens, UniProt Q9BXA6); baseline: untreated control: 92.6%
CSNK1A1L (Homo sapiens, UniProt Q8N752); inhibitor: 81.1%
